Measured values of several laboratories.
Compare with care: the assays were run in different laboratories. ± marks the error that the study gave.

Structure (SMILES) = CC(C)N1CCC(NC2CCN(c3cccc(-c4cc5cc(F)ccc5[nH]4)c3)CC2)CC1; cell line = CCRF-CEM; measurement = CC50; result = 7.89 µM
Structure (SMILES) = CC(C)=CCc1c(O)cc(O)cc1-c1cc2ccc(O)c(CC=C(C)C)c2o1; cell line = MCF7; assay = cell growth, MTT; setting = 12.5 µg/mL, 48 h; measurement = cell survival; result = 78.3 ± 0.82%
Structure (SMILES) = COc1cc(CCC[P+](c2ccccc2)(c2ccccc2)c2ccccc2)c(OC)c2c1OCO2.[I-]; cell line = PC-3; assay = SRB; measurement = LC50; result = > -4 log M
Structure (SMILES) = O=C1CCP(=S)(c2ccccc2)CC1; cell line = PC-3; assay = ELISA; setting = IC50, 72 h; measurement = IL-6 level; result = 0.1 ± 0.03 pg/mL
Structure (SMILES) = CN1CCN(C2(CNC3CCN(c4cccc(-c5cc6cc(F)ccc6[nH]5)c4)CC3)CCC2)CC1; cell line = SK-MEL-2; measurement = CC50; result = 7.23 µM
Structure (SMILES) = Oc1cc(O)cc(-c2cc3ccc(O)cc3o2)c1; cell line = MCF7; assay = cell growth, MTT; setting = 7.25 µg/mL, 48 h; measurement = cell survival; result = 77.24 ± 0.23%
Structure (SMILES) = Nc1ncnc2c1ncn2[C@@H]1O[C@@H]2COP(=O)(O)O[C@H]3[C@@H](O)[C@H](n4cnc5c(=O)[nH]cnc54)O[C@@H]3COP(=O)(O)O[C@H]2[C@H]1O; cell line = HFF-1; assay = RNA sequencing, item: Reactome Interferon gamma signaling; setting = upregulated pathways; scale = reference: mock; measurement = fold enrichment; result = 11.9
Structure (SMILES) = CN1CCN(S(=O)(=O)c2cc([N+](=O)[O-])ccc2N(CCOS(C)(=O)=O)CCOS(C)(=O)=O)CC1; cell line = sample D B-ALL PDX cells; assay = cell viability; test system = ex vivo; setting = 48 h, with: AKR1C3 inhibitor 1 µM, 1 h pretreatment; measurement = IC50; result = 41 µM

A few entries again:
Structure (SMILES) = CN1CCN(S(=O)(=O)c2cc([N+](=O)[O-])ccc2N(CCOS(C)(=O)=O)CCOS(C)(=O)=O)CC1; cell line = sample D B-ALL PDX cells; assay = cell viability; test system = ex vivo; setting = 48 h, with: AKR1C3 inhibitor 1 µM, 1 h pretreatment; measurement = IC50; result = 41 µM
